Measured values gathered from unrelated publications.
Each line is one published result; not all experiments were run side by side. Values joined by “and” are separate records of one study, mostly repeats; a detail may differ. ± gives the spread as reported. In brackets after ≈: the same amount, converted by molar mass.
UniProt P04629, sequence (whole entry, looked up): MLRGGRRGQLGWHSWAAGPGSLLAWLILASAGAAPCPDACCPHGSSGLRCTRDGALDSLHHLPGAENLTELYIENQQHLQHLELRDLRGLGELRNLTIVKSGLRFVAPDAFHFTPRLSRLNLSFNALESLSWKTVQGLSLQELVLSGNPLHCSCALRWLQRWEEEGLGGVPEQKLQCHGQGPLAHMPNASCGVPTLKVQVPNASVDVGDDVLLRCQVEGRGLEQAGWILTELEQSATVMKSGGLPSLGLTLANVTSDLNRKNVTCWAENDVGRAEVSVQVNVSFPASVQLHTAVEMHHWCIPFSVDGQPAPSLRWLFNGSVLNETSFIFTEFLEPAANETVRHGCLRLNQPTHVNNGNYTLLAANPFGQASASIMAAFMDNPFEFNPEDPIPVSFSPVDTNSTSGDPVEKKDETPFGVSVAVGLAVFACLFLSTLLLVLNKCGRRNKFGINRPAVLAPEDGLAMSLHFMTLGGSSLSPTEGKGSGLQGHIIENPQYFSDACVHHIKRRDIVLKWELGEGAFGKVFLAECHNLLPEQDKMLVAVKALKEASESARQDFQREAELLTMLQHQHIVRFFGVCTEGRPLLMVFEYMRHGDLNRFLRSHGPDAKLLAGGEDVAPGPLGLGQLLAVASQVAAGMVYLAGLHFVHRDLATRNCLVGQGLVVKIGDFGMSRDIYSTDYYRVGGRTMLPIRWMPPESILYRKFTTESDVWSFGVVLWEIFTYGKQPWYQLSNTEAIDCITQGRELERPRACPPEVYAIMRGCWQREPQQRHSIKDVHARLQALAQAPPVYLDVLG

SMILES	tested on	test	system	conditions	scale	quantity	result
Cc1cc(C(=O)Nc2nc3cccc(C)c3n2[C@H]2CCCCN(C(=O)/C=C/CN(C)C)C2)ccn1	Trypanosoma brucei	wash-off	–	6 h	–	minimum cidal concentration	50 µM
C=C(NC(=O)c1csc(-c2nc3c(cc2O)-c2nc(cs2)C(=O)NC(C(C)O)C(=O)NC(=C(C)OC)c2nc(cs2)C(=O)NC2c4nc(cs4)C(=O)NC(COC(=O)c4c5c6c(cccc6n4O)COC(=O)C(OC4CC(C)(O)C(N(C)C)C(C)O4)C2OC5)c2nc-3cs2)n1)C(N)=O (stereo not shown)	Staphylococcus epidermidis	microbial growth, broth dilution	–	clinical isolate	–	MIC90	0.0625 µg/mL (≈ 0.0435 µM)
CC1(C)[C@H](NC(=O)/C(=N\OCc2cc(=O)c(O)cn2O)c2csc(N)n2)C(=O)N1OS(=O)(=O)O	Enterobacter aerogenes	agar dilution	ATCC 13048 susceptible	–	–	MIC	0.125 µg/mL (≈ 0.241 µM)
Cc1ncsc1-c1ccc(C(C)NC(=O)C2CC(O)CN2C(=O)C(NC(=O)CCCCCCCCCCN2CCCC(Nc3ncc(Cl)c(Nc4ccccc4S(=O)(=O)C(C)C)n3)C2)C(C)(C)C)cc1 (stereo not shown)	22Rv1	RNA-seq, item: OSBPL5 mRNA	–	concentration not given	reference: DMSO	log2 fold change	-1.66
CCOC(=O)c1cc(-c2nc3ccccc3s2)c(=O)n(NS(=O)(=O)c2ccc(Cl)cc2)c1N	herpes simplex virus 1	viral replication, plaque	Vero	non-toxic dose, mean of three titres	–	plaque reduction	0%
CC(C)(C)NCC(SS(=O)(=O)O)c1ccccc1 (stereo not shown)	Schistosoma mansoni	–	mice	600 mg/kg single dose, dosed day 15, perfused 44	–	female worms recovered	3 worms per mouse and 1 worms per mouse and 0 worms per mouse and 2 worms per mouse
Nc1nc(-c2ccccc2)nc2[nH]nc(Nc3ccc([N+](=O)[O-])cc3)c12	rhinovirus B48	viral cytopathic effect	HeLa	–	–	IC50	960 nM
CC[C@H](C)CCCCC(=O)N[C@@H](CCN)C(=O)N[C@H](C(=O)N[C@@H](CCN)C(=O)N[C@H]1CCNC(=O)[C@H]([C@@H](C)O)NC(=O)[C@H](CCN)NC(=O)[C@H](CCN)NC(=O)[C@H](CC(C)C)NC(=O)[C@@H](CC(C)C)NC(=O)[C@H](CCN)NC1=O)[C@@H](C)O	Klebsiella pneumoniae	–	BAA-2784, BALB/c mouse peritonitis, peritoneal fluid	dose not given	–	bacterial load	9.33 log CFU and 9.86 log CFU and 9.53 log CFU and 9.49 log CFU and 9.52 log CFU
Cc1ccc(-c2nc(N)c3c(Nc4ccc(F)cc4)n[nH]c3n2)cc1F	rhinovirus B48	viral cytopathic effect	HeLa	–	–	IC50	3620 nM
Cc1cccc2c1N(C(=O)n1ccnn1)CC2	Arabidopsis thaliana	–	kai2 mutant, seeds	100 µM, 72 h	–	germination rate	61.5% and 66.7% and 53.6% and 40.5% and 34.7%
O=C(COCC(F)F)Nc1ccc([C@H]2[C@@H](F)[C@@H](F)C[C@@H](F)[C@H]2F)cc1	–	hepatocyte stability	cryopreserved human hepatocytes	1 µM	–	hepatic clearance	19 mL/min/kg
NCCOCCO.O=C(O)C(Cl)Cl	Solanum nigrum	herbicidal activity	–	15 mg/mL, 21 days, pre-emergence greenhouse	–	inhibition	0%
CC(C)C[C@H](NC(=O)[C@H](Cc1ccc(O)cc1)NC(=O)[C@@H]1CCCN1C(=O)[C@H](CCCNC(=N)N)NC(=O)[C@@H]1CCCN1C(=O)[C@H](CCCCN)NC(=O)[C@H](CC(=O)O)NC(=O)[C@@H]1CCCN1C(=O)[C@H](CCCNC(=N)N)NC(=O)C1(N)CCCCC1)C(=O)N1CCC[C@H]1C(=O)N[C@@H](CCCNC(=N)N)C(=O)N1CCC[C@H]1C(=O)N[C@@H](CCCNC(=N)N)C(=O)N1CCC[C@H]1C(=O)N1CCC[C@H]1C(=O)N[C@@H](CCCNC(=N)N)C(=O)N1CCC[C@H]1C(=O)N[C@H](C(=O)N[C@@H](CCCNC(=N)N)C(=O)N[C@@H](CSCc1cccc(CSC[C@H](NC(=O)[C@H](CCCNC(=N)N)NC(=O)[C@@H](NC(=O)[C@@H]2CCCN2C(=O)[C@H](CCCNC(=N)N)NC(=O)[C@@H]2CCCN2C(=O)[C@@H]2CCCN2C(=O)[C@H](CCCNC(=N)N)NC(=O)[C@@H]2CCCN2C(=O)[C@H](CCCNC(=N)N)NC(=O)[C@@H]2CCCN2C(=O)[C@H](CC(C)C)NC(=O)[C@H](Cc2ccc(O)cc2)NC(=O)[C@@H]2CCCN2C(=O)[C@H](CCCNC(=N)N)NC(=O)[C@@H]2CCCN2C(=O)[C@H](CCCCN)NC(=O)[C@H](CC(=O)O)NC(=O)[C@@H]2CCCN2C(=O)[C@H](CCCNC(=N)N)NC(=O)C2(N)CCCCC2)C(C)C)C(=O)NN)c1)C(=O)NN)C(C)C	Klebsiella pneumoniae	membrane disruption, propidium iodide uptake	13883	90 min, 37 °C	–	MDC	32.7 ± 1.4 µg/mL
CN(C)c1nc(NCc2ccc(Oc3ccccc3)cc2)c(/N=N/c2ccc(Cl)cc2)c(N(C)C)n1	Ostrinia furnacalis	–	–	10 µM, 6 days, larvae, artificial diet	–	body length decrease	40%
CCN(CC)CC#CCNc1ccnc2cc(Cl)ccc12	Plasmodium falciparum	parasite growth, SYBR Green I	3D7	single experiment	–	IC50	38.1 nM
Nc1ncc(-c2cc(-c3cnn(CC(F)(F)F)c3)ncc2F)nc1C(=O)NC1CNCC(F)C1 (stereo not shown)	LATS2	KINOMEscan	–	1 µM	reference: DMSO control	remaining binding	100%
C=C1C(=O)OC2C1CCC(C)(O)C13C=CC(C)(C21)C1(C3)C(=O)OC2C3C(C)C(=O)CC3C(=C)CC(OC(C)=O)C21 (stereo not shown)	Danio rerio	–	–	concentration not given, HFD-fed larvae NAFLD model	–	GSH level	increased
C=C[C@]1(C)C[C@@H](OC(=O)CSc2ccc(NC(=O)c3ccco3)cc2)[C@]2(C)[C@H](C)CC[C@]3(CCC(=O)[C@H]32)[C@@H](C)[C@@H]1O	Mycoplasma gallisepticum	PK/PD fit	infected chickens	–	–	maximum antibacterial effect	4.29 log10 CFU/mL
Cc1ccc(-c2nc(N)c3c(Nc4ccc(F)cc4)n[nH]c3n2)cc1	rhinovirus B48	viral cytopathic effect	HeLa	–	–	IC50	1460 nM
c1ccc(CN2CCOCCOCCN(CCCCCCCCCCN3CCOCCOCCN(CCCCCCCCCCN4CCOCCOCCN(Cc5ccccc5)CCOCCOCC4)CCOCCOCC3)CCOCCOCC2)cc1	Klebsiella pneumoniae	–	ATCC BAA-2146	2.5 µM, added: tetracycline	–	tetracycline MIC	900 ± 100 µM

SMILES	tested on	test	system	conditions	scale	quantity	result
CN1CCCNC(=O)c2cccc(c2)C(=O)NCCCN(C)CCCNc2cccc3c2C(=O)c2cccc(c2C3=O)NCCC1	SAS	RNA-Seq, item: PPP2R3A mRNA	–	1 µM, 6 h	reference: untreated cells	log2 fold change	-1.3
CC1(C)[C@H](NC(=O)/C(=N\OCCN)c2nsc(N)n2)C(=O)N1OS(=O)(=O)O	Klebsiella pneumoniae	agar dilution	ATCC 700603, ESBL-producing	–	–	MIC	> 64 µg/mL
CN(C)S(=O)(=O)c1ccc(S(=O)(=O)N2CCC(n3c(=O)[nH]c4ccccc43)CC2)cc1	Klebsiella pneumoniae	–	ATCC 700603, mouse lung infection model, lung	6 mg/kg, 24 h	–	lung bacterial burden	5.35 log CFU and 6.56 log CFU and 5.86 log CFU and 5.84 log CFU and 6.22 log CFU
CN(Cc1ccc(C2(C(F)(F)F)CCC2)cc1)Cc1cccc2ccccc12	Trichophyton mentagrophytes	microbial growth, disc diffusion	ATCC18748	0.016 µg/mL, 72 h	–	inhibition zone	19.2 mm
C[C@@H]1C(=O)O[C@@H](C)/C=C/C=C\[C@@H](C)[C@@H]2C=C[C@@H]3C[C@@]4(C)O[C@H]4[C@@H](C)[C@H]3[C@@H]2C(=O)C(Cl)(Cl)C1=O	Staphylococcus aureus	–	MSSA clinical isolate	PEN SXT TET resistant	–	MIC	0.025 µg/mL (≈ 0.0505 µM)
c1ccc(CN2CCOCCOCCN(CCCCCCCCN3CCOCCOCCN(CCCCCCCCN4CCOCCOCCN(Cc5ccccc5)CCOCCOCC4)CCOCCOCC3)CCOCCOCC2)cc1	Klebsiella pneumoniae	–	ATCC BAA-2146	half MIC, added: tetracycline	–	tetracycline MIC	25 ± 10 µM
C=CC(=O)Nc1cccc(Cn2ncc3cnc(Nc4cnn(CCOC)c4)nc32)c1	CDK3 human	binding, KINOMEscan	–	100 nM	lower = stronger binding	percent of control	88%
Nc1nc(-c2ccccc2)nc2[nH]nc(Nc3cc(F)ccc3F)c12	rhinovirus B48	viral cytopathic effect	HeLa	–	–	IC50	690 nM
Cc1nn(-c2cccc(N)c2)c(=O)c2cnc(Nc3ccc(N4CCNCC4)cc3)nc12	NTRK1 (Homo sapiens, UniProt P04629)	enzyme activity, inhibitor	–	–	–	IC50	2750 nM
COC1C=COC2(C)Oc3c(C)c(O)c4c(c3C2=O)C2=NC3(CCN(CC(C)C)CC3)NC2=C(NC(=O)C(C)=CC=CC(C)C(O)C(C)C(O)C(C)C(OC(=O)Nc2cccnn2)C1C)C4=O (stereo not shown)	Mycobacteroides abscessus	bacterial growth	subsp. abscessus clinical isolate	slow grower	–	IC90	73 nM
CC(C)c1ccc(Nc2n[nH]c3nc(-c4ccccc4)nc(N)c23)cc1	rhinovirus B48	viral cytopathic effect	HeLa	–	–	IC50	2370 nM
Nc1c(C(=O)c2ccc(Br)cc2)sc(S)c1-c1nc2ccccc2s1	herpes simplex virus 1	plaque reduction	–	non-toxic dose NG, mean over three titres	–	viral reduction	26.7%
Nc1nc(-c2ccc(OC(F)(F)F)cc2)nc2[nH]nc(Nc3ccccc3)c12	rhinovirus B48	viral cytopathic effect	HeLa	–	–	IC50	6540 nM
CC(=O)OC[C@H]1O[C@@H](Sc2sc(C(=O)c3ccc(Cl)cc3)c(N)c2-c2nc3ccccc3s2)[C@H](OC(C)=O)[C@@H](OC(C)=O)[C@@H]1OC(C)=O	herpes simplex virus 1	plaque reduction	–	non-toxic dose NG, mean over three titres	–	viral reduction	13.3%
Cc1cc(Cl)cc(S(C)=NC#N)c1NC(=O)c1cc(Br)nn1-c1ncccc1Cl (stereo not shown)	Plutella xylostella	–	Raphanus sativus field plot	50 ppm, 168 h, 10% wettable powder	–	larval viability	13.8% and 8.6% and 9.7%
c1ccc(CN2CCOCCOCCN(CCCCCCCCCCCCCCN3CCOCCOCCN(CCCCCCCCCCCCCCN4CCOCCOCCN(Cc5ccccc5)CCOCCOCC4)CCOCCOCC3)CCOCCOCC2)cc1	Klebsiella pneumoniae	tetracycline MIC, checkerboard	ATCC BAA-2146	quarter MIC, added: tetracycline	reference: MIC alone over combination	fold enhancement	3 fold
Nc1nc(-c2ccccc2)nc2[nH]nc(Nc3ccccc3)c12	rhinovirus B48	viral cytopathic effect	HeLa	–	–	IC50	70 nM
FC(F)(F)c1cccc(CNc2nc(NC3CCN(Cc4ccccc4)CC3)c3nc[nH]c3n2)c1	Cryptococcus neoformans	RNA-seq, item: INP52 (CNAG_01532) mRNA	–	48 µg/mL, 3 h	reference: untreated wild type	log2 fold change	-0.368
CN(C)c1ccc(Nc2n[nH]c3nc(-c4ccccc4)nc(N)c23)cc1	rhinovirus B48	viral cytopathic effect	HeLa	–	–	IC50	450 nM
O=C(NCCO)c1ccc(C2CCCCC2)cc1	–	hepatocyte stability	cryopreserved human hepatocytes	1 µM	–	hepatic clearance	17 mL/min/kg
